# Results pooled from the literature.
# By UniProt entry, the sequences of proteins in these tests, tags left out. Where a name states a change or a piece, a line headed by the entry shows the natural chain unless it says otherwise. Residues count along the entry.
# UniProt Q14833, 33-912 limits assumed: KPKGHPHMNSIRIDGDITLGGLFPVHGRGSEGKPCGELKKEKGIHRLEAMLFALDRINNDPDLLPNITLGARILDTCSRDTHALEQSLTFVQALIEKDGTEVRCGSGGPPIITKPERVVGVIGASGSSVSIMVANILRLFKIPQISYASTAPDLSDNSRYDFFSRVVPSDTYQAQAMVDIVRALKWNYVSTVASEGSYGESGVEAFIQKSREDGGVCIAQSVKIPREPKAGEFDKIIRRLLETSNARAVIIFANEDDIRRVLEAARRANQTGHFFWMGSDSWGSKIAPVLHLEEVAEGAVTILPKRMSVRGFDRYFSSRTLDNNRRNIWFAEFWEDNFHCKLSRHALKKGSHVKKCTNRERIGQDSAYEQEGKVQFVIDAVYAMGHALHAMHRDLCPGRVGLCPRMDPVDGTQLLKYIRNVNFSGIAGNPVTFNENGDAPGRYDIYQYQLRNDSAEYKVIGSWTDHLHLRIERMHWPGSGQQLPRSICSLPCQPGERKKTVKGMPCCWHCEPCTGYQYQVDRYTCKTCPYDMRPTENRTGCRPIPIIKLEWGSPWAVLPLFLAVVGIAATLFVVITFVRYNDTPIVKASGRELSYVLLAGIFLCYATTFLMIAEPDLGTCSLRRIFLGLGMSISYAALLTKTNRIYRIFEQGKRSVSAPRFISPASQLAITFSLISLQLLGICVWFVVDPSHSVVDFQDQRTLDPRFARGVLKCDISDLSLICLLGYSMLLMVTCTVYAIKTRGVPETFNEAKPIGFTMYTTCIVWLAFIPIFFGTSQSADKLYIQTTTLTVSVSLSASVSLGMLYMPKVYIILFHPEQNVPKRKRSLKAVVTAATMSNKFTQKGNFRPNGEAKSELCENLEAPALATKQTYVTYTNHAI
# UniProt P46934, whole entry, looked up: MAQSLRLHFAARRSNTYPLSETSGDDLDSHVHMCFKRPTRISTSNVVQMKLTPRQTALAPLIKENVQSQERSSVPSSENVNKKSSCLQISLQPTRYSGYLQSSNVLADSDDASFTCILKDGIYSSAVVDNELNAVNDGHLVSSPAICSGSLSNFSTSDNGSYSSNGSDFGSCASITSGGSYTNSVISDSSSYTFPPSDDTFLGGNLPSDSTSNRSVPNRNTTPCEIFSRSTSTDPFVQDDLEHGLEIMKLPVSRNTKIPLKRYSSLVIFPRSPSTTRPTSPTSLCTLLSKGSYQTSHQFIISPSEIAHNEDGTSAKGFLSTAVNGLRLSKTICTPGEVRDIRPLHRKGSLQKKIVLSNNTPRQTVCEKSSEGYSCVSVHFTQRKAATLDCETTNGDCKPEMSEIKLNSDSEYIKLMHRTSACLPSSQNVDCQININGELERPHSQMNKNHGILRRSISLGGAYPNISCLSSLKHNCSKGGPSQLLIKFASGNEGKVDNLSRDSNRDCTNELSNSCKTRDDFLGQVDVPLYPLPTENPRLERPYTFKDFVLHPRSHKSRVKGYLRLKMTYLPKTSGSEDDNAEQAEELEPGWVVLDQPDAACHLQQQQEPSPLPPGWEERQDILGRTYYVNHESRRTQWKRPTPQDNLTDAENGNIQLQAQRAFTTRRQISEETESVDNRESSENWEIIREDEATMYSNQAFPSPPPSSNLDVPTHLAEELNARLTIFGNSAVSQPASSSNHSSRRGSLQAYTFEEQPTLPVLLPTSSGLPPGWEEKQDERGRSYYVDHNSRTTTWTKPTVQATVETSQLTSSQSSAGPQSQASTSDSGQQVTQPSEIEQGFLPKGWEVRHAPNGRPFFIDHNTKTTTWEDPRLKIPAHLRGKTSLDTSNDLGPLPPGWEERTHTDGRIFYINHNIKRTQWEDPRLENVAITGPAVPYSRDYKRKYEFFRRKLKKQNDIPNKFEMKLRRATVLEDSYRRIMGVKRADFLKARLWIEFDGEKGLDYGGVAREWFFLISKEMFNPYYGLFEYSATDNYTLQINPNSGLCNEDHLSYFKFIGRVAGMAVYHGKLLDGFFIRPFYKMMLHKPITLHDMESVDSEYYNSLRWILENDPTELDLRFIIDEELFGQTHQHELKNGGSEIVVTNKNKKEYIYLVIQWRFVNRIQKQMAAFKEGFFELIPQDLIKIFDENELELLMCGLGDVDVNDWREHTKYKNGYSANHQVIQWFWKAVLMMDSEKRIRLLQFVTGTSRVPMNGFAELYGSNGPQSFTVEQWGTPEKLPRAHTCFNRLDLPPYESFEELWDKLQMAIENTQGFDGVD
# UniProt Q99797, 36-713 limits assumed: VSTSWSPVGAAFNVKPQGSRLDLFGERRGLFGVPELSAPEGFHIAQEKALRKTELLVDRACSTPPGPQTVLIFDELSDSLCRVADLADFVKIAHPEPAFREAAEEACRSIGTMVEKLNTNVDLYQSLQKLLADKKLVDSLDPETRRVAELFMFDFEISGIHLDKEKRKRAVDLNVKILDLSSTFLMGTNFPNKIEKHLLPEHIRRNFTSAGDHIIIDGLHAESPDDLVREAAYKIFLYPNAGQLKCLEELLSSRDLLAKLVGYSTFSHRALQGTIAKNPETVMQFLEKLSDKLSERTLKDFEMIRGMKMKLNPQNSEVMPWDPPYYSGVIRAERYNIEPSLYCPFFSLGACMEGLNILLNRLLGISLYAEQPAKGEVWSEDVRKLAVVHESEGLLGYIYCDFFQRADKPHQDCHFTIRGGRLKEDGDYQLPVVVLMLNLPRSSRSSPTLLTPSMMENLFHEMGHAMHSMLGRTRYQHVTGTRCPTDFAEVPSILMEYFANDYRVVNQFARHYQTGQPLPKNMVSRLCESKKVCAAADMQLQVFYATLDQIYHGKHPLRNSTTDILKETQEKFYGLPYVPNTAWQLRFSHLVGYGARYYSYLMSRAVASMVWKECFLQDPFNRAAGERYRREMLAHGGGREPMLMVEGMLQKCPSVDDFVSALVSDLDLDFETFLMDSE
# UniProt P45983, 1-384 isoform 3: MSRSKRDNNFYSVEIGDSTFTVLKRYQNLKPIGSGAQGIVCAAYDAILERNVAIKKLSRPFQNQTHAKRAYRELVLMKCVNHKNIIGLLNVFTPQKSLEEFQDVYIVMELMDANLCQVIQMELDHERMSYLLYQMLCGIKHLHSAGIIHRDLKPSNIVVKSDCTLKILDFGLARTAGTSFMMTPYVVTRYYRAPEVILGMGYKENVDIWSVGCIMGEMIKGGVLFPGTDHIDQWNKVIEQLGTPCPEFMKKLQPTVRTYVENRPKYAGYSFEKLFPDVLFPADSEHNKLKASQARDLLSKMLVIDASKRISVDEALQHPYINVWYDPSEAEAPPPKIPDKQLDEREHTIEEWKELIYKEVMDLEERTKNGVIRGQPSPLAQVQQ
# UniProt P05067, 672-713 limits assumed: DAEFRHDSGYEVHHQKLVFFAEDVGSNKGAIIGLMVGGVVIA
# UniProt P46154, whole entry: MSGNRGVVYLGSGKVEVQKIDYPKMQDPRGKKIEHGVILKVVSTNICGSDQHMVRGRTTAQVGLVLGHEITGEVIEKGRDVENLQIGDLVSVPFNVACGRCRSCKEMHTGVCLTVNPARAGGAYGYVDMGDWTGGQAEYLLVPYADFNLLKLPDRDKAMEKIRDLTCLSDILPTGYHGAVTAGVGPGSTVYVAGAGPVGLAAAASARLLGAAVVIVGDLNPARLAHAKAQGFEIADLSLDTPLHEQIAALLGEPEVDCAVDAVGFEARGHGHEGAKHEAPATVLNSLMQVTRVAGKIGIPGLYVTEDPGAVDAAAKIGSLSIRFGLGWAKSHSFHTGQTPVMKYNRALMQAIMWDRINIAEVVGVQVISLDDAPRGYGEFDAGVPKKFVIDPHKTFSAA
# UniProt Q96SW2, whole entry, looked up: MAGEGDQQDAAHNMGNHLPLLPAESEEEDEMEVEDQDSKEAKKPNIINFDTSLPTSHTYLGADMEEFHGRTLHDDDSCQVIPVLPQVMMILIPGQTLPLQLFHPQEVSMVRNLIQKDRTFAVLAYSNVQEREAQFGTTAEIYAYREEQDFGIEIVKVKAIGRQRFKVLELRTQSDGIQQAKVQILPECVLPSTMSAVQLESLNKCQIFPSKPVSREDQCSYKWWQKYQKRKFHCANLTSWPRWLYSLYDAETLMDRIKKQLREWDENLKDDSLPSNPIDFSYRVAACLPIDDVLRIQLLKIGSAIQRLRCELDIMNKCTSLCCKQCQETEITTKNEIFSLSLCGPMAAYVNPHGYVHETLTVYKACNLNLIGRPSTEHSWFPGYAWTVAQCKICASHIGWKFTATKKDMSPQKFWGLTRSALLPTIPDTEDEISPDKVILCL
# UniProt P07900, 1-236 limits assumed: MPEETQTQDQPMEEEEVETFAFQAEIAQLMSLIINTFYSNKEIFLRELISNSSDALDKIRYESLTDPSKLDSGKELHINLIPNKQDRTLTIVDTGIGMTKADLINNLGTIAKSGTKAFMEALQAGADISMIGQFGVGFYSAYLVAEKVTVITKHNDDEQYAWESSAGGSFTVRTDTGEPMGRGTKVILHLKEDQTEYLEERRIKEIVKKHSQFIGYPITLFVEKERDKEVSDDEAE
# UniProt P22756, 31-920 isoform 4 limits assumed: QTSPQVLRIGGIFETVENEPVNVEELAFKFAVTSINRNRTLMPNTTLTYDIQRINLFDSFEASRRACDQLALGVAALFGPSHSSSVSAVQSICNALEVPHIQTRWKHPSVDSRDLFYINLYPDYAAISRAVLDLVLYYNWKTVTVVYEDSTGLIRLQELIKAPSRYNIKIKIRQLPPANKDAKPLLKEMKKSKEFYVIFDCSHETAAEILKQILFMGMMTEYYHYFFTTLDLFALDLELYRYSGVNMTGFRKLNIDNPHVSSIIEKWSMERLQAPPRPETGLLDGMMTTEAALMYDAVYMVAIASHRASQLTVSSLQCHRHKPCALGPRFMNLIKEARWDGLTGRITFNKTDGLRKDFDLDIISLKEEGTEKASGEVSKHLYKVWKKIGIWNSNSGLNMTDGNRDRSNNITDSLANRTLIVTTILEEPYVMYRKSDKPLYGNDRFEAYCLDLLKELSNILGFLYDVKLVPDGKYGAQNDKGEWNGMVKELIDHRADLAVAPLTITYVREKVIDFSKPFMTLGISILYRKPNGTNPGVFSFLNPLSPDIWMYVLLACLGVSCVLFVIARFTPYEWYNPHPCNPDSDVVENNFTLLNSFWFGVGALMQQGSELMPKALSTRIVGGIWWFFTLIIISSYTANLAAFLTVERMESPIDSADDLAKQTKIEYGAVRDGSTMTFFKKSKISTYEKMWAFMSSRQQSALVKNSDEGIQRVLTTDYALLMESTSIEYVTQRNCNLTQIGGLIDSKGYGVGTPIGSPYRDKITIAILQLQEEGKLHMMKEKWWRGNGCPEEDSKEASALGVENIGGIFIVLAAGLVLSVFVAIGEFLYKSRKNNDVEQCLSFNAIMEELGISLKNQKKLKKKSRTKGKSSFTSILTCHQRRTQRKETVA
# UniProt Q9NTG7, whole entry: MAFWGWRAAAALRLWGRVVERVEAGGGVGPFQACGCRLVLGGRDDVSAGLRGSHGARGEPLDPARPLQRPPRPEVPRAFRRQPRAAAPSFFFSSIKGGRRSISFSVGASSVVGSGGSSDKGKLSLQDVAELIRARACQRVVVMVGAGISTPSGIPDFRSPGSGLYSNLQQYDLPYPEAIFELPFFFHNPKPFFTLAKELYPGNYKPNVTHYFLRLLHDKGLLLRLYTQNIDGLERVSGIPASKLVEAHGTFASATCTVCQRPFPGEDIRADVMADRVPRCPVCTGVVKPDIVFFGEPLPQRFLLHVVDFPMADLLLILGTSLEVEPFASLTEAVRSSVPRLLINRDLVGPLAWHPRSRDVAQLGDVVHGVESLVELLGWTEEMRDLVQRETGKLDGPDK
# UniProt O14744, whole entry: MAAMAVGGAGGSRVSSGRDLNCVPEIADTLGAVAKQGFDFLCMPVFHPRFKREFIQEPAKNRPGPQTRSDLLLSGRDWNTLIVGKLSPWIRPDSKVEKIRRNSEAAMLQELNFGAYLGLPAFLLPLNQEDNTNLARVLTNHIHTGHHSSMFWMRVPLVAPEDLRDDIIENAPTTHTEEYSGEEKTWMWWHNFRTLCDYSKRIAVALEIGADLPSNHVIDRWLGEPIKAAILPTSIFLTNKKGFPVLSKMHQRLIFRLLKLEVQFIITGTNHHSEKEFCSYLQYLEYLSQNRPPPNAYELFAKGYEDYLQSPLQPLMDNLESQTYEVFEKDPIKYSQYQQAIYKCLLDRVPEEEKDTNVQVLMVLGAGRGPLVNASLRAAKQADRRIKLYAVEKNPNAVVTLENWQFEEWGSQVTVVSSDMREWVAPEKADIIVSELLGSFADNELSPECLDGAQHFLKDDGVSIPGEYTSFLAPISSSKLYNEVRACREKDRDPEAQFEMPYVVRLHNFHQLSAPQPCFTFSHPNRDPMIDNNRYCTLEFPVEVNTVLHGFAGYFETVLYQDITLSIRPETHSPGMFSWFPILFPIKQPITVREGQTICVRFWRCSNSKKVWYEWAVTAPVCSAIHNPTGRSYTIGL
# UniProt P00491, whole entry: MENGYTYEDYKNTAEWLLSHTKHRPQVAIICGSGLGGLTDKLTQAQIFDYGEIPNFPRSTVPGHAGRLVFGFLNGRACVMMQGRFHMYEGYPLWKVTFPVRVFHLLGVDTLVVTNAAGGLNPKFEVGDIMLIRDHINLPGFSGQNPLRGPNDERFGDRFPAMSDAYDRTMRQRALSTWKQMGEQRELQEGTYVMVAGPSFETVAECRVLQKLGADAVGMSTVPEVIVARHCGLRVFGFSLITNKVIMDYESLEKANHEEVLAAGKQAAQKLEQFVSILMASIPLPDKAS
# Compare with care: the assays were run in different laboratories. Values joined by “and” are separate records of one study, mostly repeats; a detail may differ. ± marks the error that the study gave.
# GRM4: Metabotropic glutamate receptor 4 (GRM4, Homo sapiens, UniProt Q14833)
# GLP1R: Glucagon-like peptide 1 receptor (GLP1R, Homo sapiens, UniProt P43220)
# E3 ubiquitin-protein ligase NEDD4: E3 ubiquitin-protein ligase NEDD4 (Homo sapiens, UniProt P46934)
# FPR1: fMet-Leu-Phe receptor (FPR1, Homo sapiens, UniProt P21462)
# MIPEP: Mitochondrial intermediate peptidase (MIPEP, Homo sapiens, UniProt Q99797)
# RPA1 N-terminal domain: Replication protein A 70 kDa DNA-binding subunit, N-terminal domain (RPA1, Homo sapiens, UniProt P27694)
# Lysophospholipase-like protein 1: Lysophospholipase-like protein 1 (Mus musculus, UniProt Q3UFF7)
# MAPK8: Mitogen-activated protein kinase 8 (MAPK8, Homo sapiens, UniProt P45983)
Compound,target,assay,test system,setting,scale,endpoint,result
COc1ccc2[nH]cc(CCc3ccc(OS(C)(=O)=O)cc3)c2c1,"Amyloid-beta precursor protein, Aβ1-40 (APP, Homo sapiens, UniProt P05067)","Aβ40 aggregation, thioflavin T fluorescence",,25 µM,,inhibition,0%
COc1ccc(NC(=O)CN2CCCN(S(=O)(=O)Cc3ccc(Cl)cc3Cl)CC2)c(OC)c1,GRM4,"calcium mobilization, positive allosteric modulator",CHO cells with Gqi5,added: glutamate,baseline: PHCCC maximal response,maximal response,34.4%
O=C(Nc1ccc(C(=O)N2CC(c3nccs3)C2)s1)[C@@H]1CCCN1,"Protein AF-9 (Homo sapiens, UniProt P42568)",,,"concentration not given, AF9",,binding,no binding
Cc1ccccc1Nc1c(C(=O)O)ccnc1C(=O)O,"fdhA (Pseudomonas putida, UniProt P46154)","inhibitor, spectrophotometric",,"200 µM, counterscreen",,remaining activity,79%
Cc1cccc(C2NC(=O)c3c(Cl)cccc3N2)c1 (racemic),"Protein polybromo-1, BD2 (PBRM1, Homo sapiens, UniProt Q86U86, V269I)",ITC,,,baseline: wild-type BD2 over V269I mutant,fold loss of affinity,5 fold
CC(=O)N[C@@H](C)C(=O)N[C@@H](CC(C)C)C(=O)N[C@H](C(=O)N[C@@H](CO)C(=O)N[C@@H](CCCNC(=N)N)C(=O)Nc1ccc2c(CC(N)=O)cc(=O)oc2c1)C(C)C,"Mucosa-associated lymphoid tissue lymphoma translocation protein 1 (MALT1, Homo sapiens, UniProt Q9UDY8)","substrate, fluorogenic peptide hydrolysis",,"pH 7.5, catalytic domain 285 or 294 nM",,kcat/Km,31000 M⁻¹ s⁻¹
CC(C)(Cn1cc(CN[C@@H]2CCc3ccccc32)nn1)c1c[nH]c2ccccc12,GLP1R,"cAMP accumulation, positive allosteric modulator, HTRF",,"0.6 µM, crude reaction product, added: GLP-1(9-36) at EC20",baseline: BETP,Emax,98.4%
NCC(c1ccc(O)cc1)c1ccc(Oc2ccccc2)cc1 (centres unmarked),"Trace amine-associated receptor 1 (Rattus norvegicus, UniProt Q923Y9, M268T/N287Y)","cAMP production, agonist",,double mutant,baseline: wild type,efficacy decrease,44 to 85%
O=C1CCC(N2Cc3cc(-c4nc5ccccn5c4NC45CC6CC(CC(C6)C4)C5)ccc3C2=O)C(=O)N1 (centres unmarked),"WEE1/CRBN (Homo sapiens, UniProt P30291+Q96SW2)","degrader, HiBiT",MOLM-14,5 h,,DC50,350 pM
C/C=C/Cn1c(Cc2cc(OC)c(OC)c(OC)c2)nc2c(N)ncnc21,"Heat shock protein HSP 90-alpha, N-terminal domain (HSP90AA1, Homo sapiens, UniProt P07900)",isothermal titration calorimetry,,"298 K, N-terminal domain",,ΔH,-10.9 ± 0.18 kcal/mol
CCOC(=O)/C=C/CNCCCN1c2ccccc2CCc2ccc([N+](=O)[O-])cc21,E3 ubiquitin-protein ligase NEDD4,"inhibitor, Ub-TR-FRET",,"0.01524 µM, 1 h preincubation, HECT domain, added: ATP 2 mM",higher = more ubiquitination,ubiquitination TR-FRET signal AUC,147000 a.u. and 149000 a.u.
CCCCN(C(=O)C1CCN(S(=O)(=O)c2ccc3[nH]ncc3c2)CC1)[C@@H]1CCc2ccccc21,"Muscarinic acetylcholine receptor M5 (CHRM5, Homo sapiens, UniProt P08912)","positive allosteric modulator, calcium mobilization",CHO cells expressing human M5,added: acetylcholine EC20,baseline: ACh maximum,potentiation,77 ± 3%
COc1ccc(OC)c(C2C(C(=O)c3ccc(C)cc3)=C(O)C(=O)N2CC(C)C)c1 (centres unmarked),FPR1,"fMLF-induced calcium mobilization, antagonist",HL-60 expressing FPR1,"concentration not given, inactive if none at 50 µM",,antagonist activity,active
CCOc1ccc2nc(SCC(=O)Nc3ccc(Cl)cc3)[nH]c2c1,FPR1,"calcium mobilization, agonist",transfected HL-60 cells,concentration not given,,activity class,active
CC(C)C[C@H](NC(=O)[C@@H]1CCCN1C(=O)[C@H](CCC(N)=O)NC(=O)c1ccccc1N)C(=O)N[C@@H](C)C(=O)N[C@@H](CC(N)=O)C(=O)N[C@@H](CCCCN)C(=O)N[C@H](C(=O)N[C@@H](CCC(N)=O)C(=O)NCCNc1ccc([N+](=O)[O-])cc1[N+](=O)[O-])C(C)C,MIPEP,"substrate, FRET peptide hydrolysis",,,,kcat/Km,11000 M⁻¹ s⁻¹
O=C(O)c1cc(C(=O)N[C@@H](CS)C(=O)O)cc([C@H]2CCN[C@@H]2C(=O)O)c1,"Glutamate receptor ionotropic, kainate 1 (Rattus norvegicus, UniProt P22756)",radioligand binding,Sf9 membranes,"10 µM, homomeric receptor, added: [3H]SYM2081",,specific binding,80 ± 2%
CCOC(=O)/C=C/CNCCCN1c2ccccc2CCc2ccccc21,E3 ubiquitin-protein ligase NEDD4,"inhibitor, Ub-TR-FRET",,"100 µM, 1 h preincubation, HECT domain, added: ATP 2 mM",higher = more ubiquitination,ubiquitination TR-FRET signal AUC,34900 a.u. and 29800 a.u. and 30000 a.u.
Cc1ccc(C(=O)Nc2ccccc2C(=O)O)cc1S(=O)(=O)Nc1ccc(Cl)c(Cl)c1,RPA1 N-terminal domain,"binding, fluorescence polarisation competition",,added: FITC-ATRIP probe,,ligand efficiency,0.23
O=C(O)c1ccnc(C(=O)O)c1Nc1ccc(F)cc1F,"Egl nine homolog 1 (EGLN1, Homo sapiens, UniProt Q9GZT9)","inhibitor, HTRF",,400 µM,,remaining activity,100%
Cn1c(=O)oc2ccc(S(=O)(=O)n3nc(SCc4ccc(Cl)cc4)nc3N)cc21,Lysophospholipase-like protein 1,"activator, gel-based ABPP, FP-rhodamine",HEK293 overexpressing Lysophospholipase-like protein 1,10 µM,,activation,78%
Cc1cc(NC(=O)c2cccc(NC(=O)C3=CC(C)(C)CC3=O)c2)ccc1Nc1nccc(-c2cccnc2)n1,MAPK8,"kinase activity, inhibitor",,"0.006774 µM, unit not given, added: 10 mM GSH",baseline: DMSO,remaining activity,0.946
CC(=O)N[C@@H](CCC(N)=O)C(=O)N[C@H](C(=O)N[C@@H](C)C(=O)N[C@@H](CCCNC(=N)N)C(=O)N[C@@H](CCCCNC(=O)CCc1ccc(N=Nc2ccc(N(C)C)cc2)cc1)C(=O)N[C@@H](CO)C(=O)N[C@H](C(=O)NCC(=O)NCC(=O)NCCCNC(=S)Nc1ccc2c(c1)C(=O)OC21c2ccc(O)cc2Oc2cc(O)ccc21)[C@@H](C)O)[C@@H](C)O,"NAD-dependent protein deacetylase sirtuin-3, mitochondrial (SIRT3, Homo sapiens, UniProt Q9NTG7)","substrate, fluorescence kinetics",,60 nM enzyme,,kcat/Km,250 M⁻¹ s⁻¹
CC(=O)NCc1cn(CCc2c(C)[nH]c3cc(Cl)cc(Cl)c23)nn1,GLP1R,"cAMP accumulation, positive allosteric modulator, HTRF",,"0.6 µM, crude reaction product, added: GLP-1(9-36) at EC20",baseline: BETP,Emax,92.3%
CCOC(=O)/C=C/CNCCCN1c2ccccc2CCc2ccc(Br)cc21,E3 ubiquitin-protein ligase NEDD4,"inhibitor, Ub-TR-FRET",,"3.704 µM, 1 h preincubation, HECT domain, added: ATP 2 mM",higher = more ubiquitination,ubiquitination TR-FRET signal AUC,77400 a.u. and 88000 a.u. and 78400 a.u.
CC(=O)Nc1ncc(CN2CC[C@H](Oc3cccc(F)n3)C[C@@H]2C)s1 [isotope labelled],"Protein O-GlcNAcase (OGA, Homo sapiens, UniProt O60502)",saturation binding,human cerebellum homogenate,radiolabelled compound,,Bmax,1.7 ± 0.9 nM
CCOC(=O)/C=C/CNCCCCN1c2ccccc2CCc2ccc(Cl)cc21,E3 ubiquitin-protein ligase NEDD4,"inhibitor, Ub-TR-FRET",,"0.005081 µM, 1 h preincubation, HECT domain, added: ATP 2 mM",higher = more ubiquitination,ubiquitination TR-FRET signal AUC,93400 a.u. and 92400 a.u. and 93200 a.u. and 90900 a.u. and 146000 a.u. and 91600 a.u.
COc1ccc(NC(=O)CN2CCCN(S(=O)(=O)c3ccoc3)CC2)c(OC)c1,GRM4,"calcium mobilization, positive allosteric modulator",CHO cells with Gqi5,added: glutamate,baseline: PHCCC maximal response,maximal response,34.1 ± 3.6%
Cc1ccc(C(=O)Nc2ccccc2C(=O)O)cc1S(=O)(=O)NC1CCCCC1,RPA1 N-terminal domain,"binding, fluorescence polarisation competition",,added: FITC-ATRIP probe,,ligand efficiency,0.18
Nc1ncnc2c1ccn2[C@@H]1O[C@H](COc2ccc3cc(Br)cnc3c2)[C@@H](O)[C@H]1O,"Protein arginine N-methyltransferase 5, with MEP50 (PRMT5, Homo sapiens, UniProt O14744)","binding, surface plasmon resonance",,,,dissociation rate constant,0.0114 s⁻¹
Cc1cc(NC(=O)c2cccc(NC(=O)C3=CC(C)(C)CCC3=O)c2)ccc1Nc1nccc(-c2cccnc2)n1,MAPK8,"kinase activity, inhibitor",,"133.3 µM, unit not given, added: 10 mM GSH",baseline: DMSO,remaining activity,0.0673
C[C@H]1N[C@@H](c2c[nH]c3c(=O)[nH]cnc23)[C@H](O)[C@@H]1O,"Purine nucleoside phosphorylase (PNP, Homo sapiens, UniProt P00491)",xanthine oxidase coupled,,first subunit,,binding free energy ΔG,-10.4 ± 0.04 kcal/mol
Nc1nc(SCc2ccc(Cl)cc2)nn1S(=O)(=O)c1ccc2c(c1)CCC2,Lysophospholipase-like protein 1,"activator, gel-based ABPP FP-rhodamine",,,baseline: DMSO,probe labelling,2.5 fold
O=C(/C=C/c1ccc(O)c(OC(F)(F)F)c1)C(CCOCCO)C(=O)/C=C/c1ccc(O)c(OC(F)(F)F)c1,"Amyloid-beta precursor protein (APP, Homo sapiens, UniProt P05067)","SDS-PAGE western blot, refers to: Aβ1-42 species 75-200 kDa",,"30 µM, 24 h, 37 °C, added: Aβ 10 µM",baseline: DMSO control,Aβ band density,614 ± 174%
CC(C)[C@H](NC(=O)c1ccccc1N)C(=O)N[C@@H](C)C(=O)N[C@@H](C)C(=O)N[C@@H](CCC(N)=O)C(=O)N[C@H](C(=O)N[C@@H](CCCCN)C(=O)N[C@H](C(=O)N[C@@H](CCCCNc1ccc([N+](=O)[O-])cc1[N+](=O)[O-])C(N)=O)[C@@H](C)O)[C@@H](C)O,MIPEP,"substrate, FRET peptide hydrolysis",,,,kcat,0.05 s⁻¹
Cc1ccc(C(=O)Nc2ccccc2C(=O)O)cc1S(=O)(=O)Nc1ccc2ccccc2c1,RPA1 N-terminal domain,"binding, fluorescence polarisation competition",,added: FITC-ATRIP probe,,ligand efficiency,0.17

# A few entries again:
Compound,target,assay,test system,setting,scale,endpoint,result
Nc1ncnc2c1ccn2[C@@H]1O[C@H](COc2ccc3cc(Br)cnc3c2)[C@@H](O)[C@H]1O,"Protein arginine N-methyltransferase 5, with MEP50 (PRMT5, Homo sapiens, UniProt O14744)","binding, surface plasmon resonance",,,,dissociation rate constant,0.0114 s⁻¹
COc1ccc(NC(=O)CN2CCCN(S(=O)(=O)Cc3ccc(Cl)cc3Cl)CC2)c(OC)c1,GRM4,"calcium mobilization, positive allosteric modulator",CHO cells with Gqi5,added: glutamate,baseline: PHCCC maximal response,maximal response,34.4%
Cc1ccc(C(=O)Nc2ccccc2C(=O)O)cc1S(=O)(=O)Nc1ccc2ccccc2c1,RPA1 N-terminal domain,"binding, fluorescence polarisation competition",,added: FITC-ATRIP probe,,ligand efficiency,0.17
CC(C)C[C@H](NC(=O)[C@@H]1CCCN1C(=O)[C@H](CCC(N)=O)NC(=O)c1ccccc1N)C(=O)N[C@@H](C)C(=O)N[C@@H](CC(N)=O)C(=O)N[C@@H](CCCCN)C(=O)N[C@H](C(=O)N[C@@H](CCC(N)=O)C(=O)NCCNc1ccc([N+](=O)[O-])cc1[N+](=O)[O-])C(C)C,MIPEP,"substrate, FRET peptide hydrolysis",,,,kcat/Km,11000 M⁻¹ s⁻¹
